# Assay results pooled from the literature.
# Compare with care: the assays were run in different laboratories. Values joined by “and” are separate records of one study, mostly repeats; a detail may differ.
# HDAC1: Histone deacetylase 1 (HDAC1, Homo sapiens, UniProt Q13547)
# UniProt Q13547, sequence (whole entry, looked up): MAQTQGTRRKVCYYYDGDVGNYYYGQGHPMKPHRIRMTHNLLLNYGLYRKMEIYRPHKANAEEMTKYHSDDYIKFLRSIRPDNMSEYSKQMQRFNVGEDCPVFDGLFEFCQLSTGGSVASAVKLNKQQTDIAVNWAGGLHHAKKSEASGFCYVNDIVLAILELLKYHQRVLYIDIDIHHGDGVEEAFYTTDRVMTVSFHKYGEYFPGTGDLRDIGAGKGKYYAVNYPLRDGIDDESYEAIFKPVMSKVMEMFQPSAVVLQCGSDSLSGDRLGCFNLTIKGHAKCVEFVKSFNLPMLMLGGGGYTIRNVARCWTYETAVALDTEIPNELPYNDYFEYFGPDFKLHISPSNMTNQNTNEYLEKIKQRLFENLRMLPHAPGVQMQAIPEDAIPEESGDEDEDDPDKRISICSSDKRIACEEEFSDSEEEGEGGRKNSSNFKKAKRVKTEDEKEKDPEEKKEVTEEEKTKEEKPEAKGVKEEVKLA
# Faah: Fatty-acid amide hydrolase 1 (Faah, Mus musculus, UniProt O08914)
# UniProt O08914, sequence (whole entry, looked up): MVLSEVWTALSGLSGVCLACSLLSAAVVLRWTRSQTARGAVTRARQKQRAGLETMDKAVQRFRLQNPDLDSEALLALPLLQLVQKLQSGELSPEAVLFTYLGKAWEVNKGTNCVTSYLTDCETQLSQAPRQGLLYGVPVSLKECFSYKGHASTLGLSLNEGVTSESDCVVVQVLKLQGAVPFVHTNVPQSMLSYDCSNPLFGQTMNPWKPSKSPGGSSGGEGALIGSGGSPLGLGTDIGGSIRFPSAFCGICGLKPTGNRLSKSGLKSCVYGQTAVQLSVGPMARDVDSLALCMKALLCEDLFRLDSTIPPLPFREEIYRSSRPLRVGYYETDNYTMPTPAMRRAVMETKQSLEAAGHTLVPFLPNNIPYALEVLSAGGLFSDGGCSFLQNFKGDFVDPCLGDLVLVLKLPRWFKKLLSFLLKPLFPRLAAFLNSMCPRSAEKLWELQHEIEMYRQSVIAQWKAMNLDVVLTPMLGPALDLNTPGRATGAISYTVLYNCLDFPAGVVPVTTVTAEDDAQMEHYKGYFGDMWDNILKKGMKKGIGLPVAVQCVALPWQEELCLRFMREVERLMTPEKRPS
# HTR2C: 5-hydroxytryptamine receptor 2C (HTR2C, Homo sapiens, UniProt P28335)
# UniProt P28335, sequence (whole entry, looked up): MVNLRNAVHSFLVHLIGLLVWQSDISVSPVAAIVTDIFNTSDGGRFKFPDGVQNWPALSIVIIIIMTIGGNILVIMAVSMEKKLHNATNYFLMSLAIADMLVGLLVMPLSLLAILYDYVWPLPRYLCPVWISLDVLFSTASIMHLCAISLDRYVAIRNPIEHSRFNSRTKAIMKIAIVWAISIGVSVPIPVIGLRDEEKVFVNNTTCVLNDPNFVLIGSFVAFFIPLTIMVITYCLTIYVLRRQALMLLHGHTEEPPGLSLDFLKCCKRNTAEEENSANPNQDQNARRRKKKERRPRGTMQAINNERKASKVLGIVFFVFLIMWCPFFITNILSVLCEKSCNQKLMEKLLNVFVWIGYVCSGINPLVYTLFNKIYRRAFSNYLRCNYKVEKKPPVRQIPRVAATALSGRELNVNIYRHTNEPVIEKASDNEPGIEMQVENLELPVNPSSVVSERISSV
# CTSL: Procathepsin L (CTSL, Homo sapiens, UniProt P07711)
# UniProt P07711, sequence (whole entry, looked up): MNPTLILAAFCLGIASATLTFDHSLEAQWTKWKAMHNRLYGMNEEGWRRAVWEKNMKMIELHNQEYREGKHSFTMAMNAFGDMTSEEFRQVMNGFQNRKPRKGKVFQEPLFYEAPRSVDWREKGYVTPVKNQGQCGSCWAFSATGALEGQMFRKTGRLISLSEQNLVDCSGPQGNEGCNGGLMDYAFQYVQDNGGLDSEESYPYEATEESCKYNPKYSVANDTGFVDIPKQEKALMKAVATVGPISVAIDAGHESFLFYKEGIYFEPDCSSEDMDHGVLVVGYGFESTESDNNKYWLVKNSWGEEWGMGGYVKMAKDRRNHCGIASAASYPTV
# Grin1: Glutamate receptor ionotropic, NMDA 1 (Grin1, Rattus norvegicus, UniProt P35439)
# Neuronal acetylcholine receptor; alpha4/beta2: Neuronal acetylcholine receptor; alpha4/beta2 (Homo sapiens, UniProt P17787+P43681)
# UniProt P17787, sequence (whole entry, looked up): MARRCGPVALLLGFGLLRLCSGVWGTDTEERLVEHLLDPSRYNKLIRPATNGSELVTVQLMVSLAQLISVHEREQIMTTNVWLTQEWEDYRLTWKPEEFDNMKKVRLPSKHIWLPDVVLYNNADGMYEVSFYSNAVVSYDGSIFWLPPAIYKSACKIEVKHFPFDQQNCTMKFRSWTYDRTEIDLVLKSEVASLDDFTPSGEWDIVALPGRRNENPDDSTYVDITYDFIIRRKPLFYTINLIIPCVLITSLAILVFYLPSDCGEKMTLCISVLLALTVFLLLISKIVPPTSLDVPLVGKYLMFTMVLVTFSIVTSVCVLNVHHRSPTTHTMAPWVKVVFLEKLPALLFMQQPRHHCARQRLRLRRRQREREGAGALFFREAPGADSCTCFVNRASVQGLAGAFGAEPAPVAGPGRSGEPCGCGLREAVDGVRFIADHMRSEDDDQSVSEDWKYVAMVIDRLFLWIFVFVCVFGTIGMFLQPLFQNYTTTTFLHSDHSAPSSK
# UniProt P43681, sequence (whole entry, looked up): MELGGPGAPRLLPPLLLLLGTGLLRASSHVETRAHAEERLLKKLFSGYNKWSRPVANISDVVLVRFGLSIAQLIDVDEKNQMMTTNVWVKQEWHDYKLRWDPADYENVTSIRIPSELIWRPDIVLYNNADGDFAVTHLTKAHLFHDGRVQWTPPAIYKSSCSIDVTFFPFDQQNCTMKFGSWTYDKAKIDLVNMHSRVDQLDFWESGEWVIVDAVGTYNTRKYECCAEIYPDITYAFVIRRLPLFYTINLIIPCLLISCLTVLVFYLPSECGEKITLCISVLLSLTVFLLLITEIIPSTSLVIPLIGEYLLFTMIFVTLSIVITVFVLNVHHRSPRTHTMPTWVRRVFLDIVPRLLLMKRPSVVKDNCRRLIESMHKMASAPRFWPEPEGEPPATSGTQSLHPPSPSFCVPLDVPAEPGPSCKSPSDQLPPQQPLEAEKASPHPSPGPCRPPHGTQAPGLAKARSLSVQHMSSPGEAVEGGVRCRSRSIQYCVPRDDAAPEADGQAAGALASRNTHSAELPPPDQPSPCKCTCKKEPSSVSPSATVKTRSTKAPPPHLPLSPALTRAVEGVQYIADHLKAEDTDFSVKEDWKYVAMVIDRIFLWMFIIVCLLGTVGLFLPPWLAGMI
# UniProt Q93009, sequence (whole entry, unmodified, looked up): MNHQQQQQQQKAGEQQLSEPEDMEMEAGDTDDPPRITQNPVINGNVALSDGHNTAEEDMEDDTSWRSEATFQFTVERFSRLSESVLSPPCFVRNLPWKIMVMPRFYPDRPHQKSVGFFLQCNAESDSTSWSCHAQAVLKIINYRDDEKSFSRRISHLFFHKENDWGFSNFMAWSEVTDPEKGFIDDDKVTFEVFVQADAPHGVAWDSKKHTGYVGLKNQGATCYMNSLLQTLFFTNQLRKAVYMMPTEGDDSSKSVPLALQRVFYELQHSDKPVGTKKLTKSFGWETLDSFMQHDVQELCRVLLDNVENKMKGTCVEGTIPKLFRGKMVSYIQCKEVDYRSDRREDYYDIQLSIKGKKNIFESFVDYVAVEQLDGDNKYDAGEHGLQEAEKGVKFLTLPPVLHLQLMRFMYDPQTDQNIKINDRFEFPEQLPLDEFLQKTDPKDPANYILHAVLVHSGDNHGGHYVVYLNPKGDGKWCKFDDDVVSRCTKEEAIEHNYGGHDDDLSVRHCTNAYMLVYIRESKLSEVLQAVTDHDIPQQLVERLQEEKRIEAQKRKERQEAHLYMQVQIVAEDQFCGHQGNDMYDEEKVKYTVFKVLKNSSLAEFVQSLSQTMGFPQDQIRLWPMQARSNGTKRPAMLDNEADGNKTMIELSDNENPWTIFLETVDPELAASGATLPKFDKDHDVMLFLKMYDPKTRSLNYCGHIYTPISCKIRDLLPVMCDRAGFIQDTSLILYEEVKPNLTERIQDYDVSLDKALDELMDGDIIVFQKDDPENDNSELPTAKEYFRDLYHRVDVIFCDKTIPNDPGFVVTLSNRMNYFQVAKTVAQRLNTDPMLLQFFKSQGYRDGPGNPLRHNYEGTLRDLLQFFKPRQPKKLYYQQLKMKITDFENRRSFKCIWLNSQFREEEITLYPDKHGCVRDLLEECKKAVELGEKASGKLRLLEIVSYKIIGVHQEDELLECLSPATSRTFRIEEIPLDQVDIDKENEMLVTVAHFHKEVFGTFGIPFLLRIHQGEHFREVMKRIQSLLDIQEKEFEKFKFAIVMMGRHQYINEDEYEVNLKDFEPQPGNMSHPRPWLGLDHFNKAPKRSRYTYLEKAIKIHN
# UniProt Q6P5Z2, sequence (whole entry, looked up): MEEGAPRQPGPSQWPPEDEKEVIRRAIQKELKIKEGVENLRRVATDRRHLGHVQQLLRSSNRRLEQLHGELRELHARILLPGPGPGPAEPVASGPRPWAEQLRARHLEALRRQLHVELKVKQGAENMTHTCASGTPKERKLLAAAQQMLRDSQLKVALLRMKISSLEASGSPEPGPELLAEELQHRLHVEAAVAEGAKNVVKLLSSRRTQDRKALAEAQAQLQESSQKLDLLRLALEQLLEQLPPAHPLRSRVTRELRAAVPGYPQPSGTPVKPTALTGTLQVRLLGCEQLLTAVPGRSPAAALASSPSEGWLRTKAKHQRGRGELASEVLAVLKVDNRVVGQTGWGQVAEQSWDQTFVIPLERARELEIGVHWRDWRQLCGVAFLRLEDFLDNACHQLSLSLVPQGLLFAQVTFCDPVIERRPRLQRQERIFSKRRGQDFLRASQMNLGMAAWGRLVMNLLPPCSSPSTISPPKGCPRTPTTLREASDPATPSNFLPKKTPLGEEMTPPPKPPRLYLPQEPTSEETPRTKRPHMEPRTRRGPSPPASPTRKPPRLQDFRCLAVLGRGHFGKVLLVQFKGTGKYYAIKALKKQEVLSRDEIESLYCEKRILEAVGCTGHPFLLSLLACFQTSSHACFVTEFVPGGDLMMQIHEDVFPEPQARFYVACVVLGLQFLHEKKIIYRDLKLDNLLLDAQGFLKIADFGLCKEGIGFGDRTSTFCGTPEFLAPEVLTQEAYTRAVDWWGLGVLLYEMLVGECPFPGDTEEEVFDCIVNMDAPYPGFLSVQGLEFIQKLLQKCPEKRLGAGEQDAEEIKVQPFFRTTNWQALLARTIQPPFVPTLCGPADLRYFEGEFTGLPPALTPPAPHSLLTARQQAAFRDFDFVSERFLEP
Structure (SMILES),target,assay,test system,conditions,scale,inhibition
CC(C)C[C@H](NC(=O)[C@H](CC(C)C)NC(=O)CNC(=O)[C@H](C)NC(=O)[C@H](C)NC(=O)[C@H](CCCNC(=N)N)NC(=O)CNC(=O)CCCCNC(=O)CCCCNC(=O)CCCCNC(=O)[C@H](CCCCN)NC(=O)[C@H](Cc1ccc(O)cc1)NC(=O)[C@@H](N)Cc1cn(C)c2ccccc12)C(N)=O,"NPBWR1 (Homo sapiens, UniProt P48145)","calcium signal, antagonist",,10 µM,,98%
Cc1cc(Cl)cc(-c2ccnc3cc(CN4C(=O)C5C(C4=O)C5(C)C)sc23)c1C[C@@H]1CNCCO1 (stereo partly shown),"USP7 (Homo sapiens, UniProt Q93009, V517F)","enzyme activity, inhibitor",,50 µM,,98.7% and 98.4%
Cn1ccc2cc(-n3c(=O)[nH]c4sc5c(c4c3=O)CCCC5)ccc21,"Slc6a1 (Rattus norvegicus, UniProt P23978)","transporter uptake, inhibitor",,10 µM,,-2%
C/C=C/C(=O)Nc1ccc2nc(NCCCCCN(C)C)nc(NCCCCCCN(C)C)c2c1,"KMT5A (Homo sapiens, UniProt Q9NQR1)","enzyme activity, inhibitor, radiometric",,10 µM,,1%
CO[C@@H](C)c1c(NC(=O)Nc2cnc(-n3nccn3)c(C(F)(F)F)c2)cnc2sc(C)nc12,"MC4R (Homo sapiens, UniProt P32245)","ligand displacement, radioligand",,10 µM,,2.7%
O=C(Nc1ccc(C(F)F)cc1)[C@H](CC1CCCCC1)Nc1nn2c(=O)ccnc2s1,"Dual specificity protein phosphatase 10 (Homo sapiens, UniProt Q9Y6W6)","enzyme activity, inhibitor",,10 µM,,-3%
O=C(NO)c1cccc(OS(=O)(=O)Oc2cccc([N+](=O)[O-])c2)c1,HDAC1,"enzyme activity, inhibitor, fluorescence",,5 µM,,51%
O=C(n1ccnn1)n1c2ccccc2c2ccccc21,Faah,"serine hydrolase activity, inhibitor, competitive gel-based ABPP",mouse T-cell proteome,"1 µM, 30 min, 37 °C",,< 50%
C[Si]1(C[C@H](CN)CC(=O)O)CCCC1,"NMBR (Homo sapiens, UniProt P28336)","cell-free assay, inhibitor",,70 µM,,9%
O=C1c2sc(-c3ccc(N4CCC(CO)CC4)nc3F)nc2CCN1c1cccnc1,HTR2C,"ligand displacement, radioligand",,1 µM,,-2%
Cc1c(COc2cc(OCc3cccc(C#N)c3)c(CNC(CO)CO)cc2Cl)cccc1-c1cccc(OCc2ccc(C(=O)NO)cc2)c1,HDAC1,"enzyme activity, inhibitor",,1 µM,,15.5%
CC(C)NC(=O)[C@H](CCc1ccccc1)NC(=O)[C@H](CC(=O)NCC(C)(C)C)NC(=O)CCc1ccccc1,CTSL,"enzyme activity, inhibitor",,100 µM,,0%
C[Si](C)(C)C[C@@H](CN)CC(=O)O,Grin1,"ligand displacement, radioligand",,75 µM,,4%
CN1CCN(C(=O)n2ccnn2)CC1,Faah,"serine hydrolase activity, inhibitor, competitive gel-based ABPP",mouse T-cell proteome,"1 µM, 30 min, 37 °C",,50 to 95%
COCC(=O)N1CCc2cc(-c3csc(NC(=O)c4cc(OC)cc(OC)c4)n3)ccc21,Grin1,"radioligand binding, glycine site",,10 µM,,-1%
CCCCCCN(O)C(=O)CCCCC[C@@H]1NC(=O)CCSCc2cccc(n2)CSCCNC(=O)[C@H](CCc2ccccc2)NC(=O)[C@H](CC)NC1=O,HDAC1,"enzyme activity, inhibitor, fluorogenic",,30 µM,,20%
C[C@H](CCC(=O)O)[C@H]1CC[C@H]2[C@@H]3[C@H](OS(=O)(=O)O)C[C@@H]4C[C@H](O)CC[C@]4(C)[C@H]3C[C@H](O)[C@]12C,"CCR5 (Homo sapiens, UniProt P51681)",,,100 µM,,2%
N=C(N)NCCCC(NC(=O)C(CC(=O)NO)Cc1ccc2ccccc2c1)C(=O)NC(Cc1c[nH]c2ccccc12)C(=O)NC(CCC(=O)O)C(N)=O (stereo not shown),"MMP12 (Homo sapiens, UniProt P39900)",,,1 µM,,98%
CC(C)(C)c1cccc(OS(=O)(=O)Oc2cc(F)cc(C(=O)NO)c2)c1,HDAC1,"enzyme activity, inhibitor, fluorescence",,5 µM,,11%
CC(C)Cn1c(SCC(=O)N2CCc3ccccc3C2)nc2cc(Cl)ccc2c1=O,"CHRM4 (Homo sapiens, UniProt P08173)","ligand displacement, radioligand",,10 µM,,-6%
Cc1c(COc2cc(OCc3cccc(C#N)c3)c(CNC(CO)CO)cc2Cl)cccc1-c1cccc(OCCCCCCC(=O)NO)c1,HDAC1,"enzyme activity, inhibitor",,1 µM,,63.5%
CN(Cc1ccc(/C=C/C(=O)NO)cc1)CC12CC3CC(CC(C3)C1)C2,human D5 receptor,antagonist radioligand binding,,0.05 µM,,-1%
CN1CC[C@@H](COc2cnc(C#N)cc2-c2ccn3nc(NC(=O)C4CC4)cc3c2)C1,"TRPM7 (Homo sapiens, UniProt Q96QT4)","kinase activity, inhibitor",,"1 µM, with: ATP 45 µM",,-1%
Cc1ccc(CNC(=O)C(CCc2ccccc2)NC(=O)C(NC(=O)Cc2cccc(Oc3ccccc3)c2)C(C)O)cc1 (stereo not shown),CTSL,"enzyme activity, inhibitor",,100 µM,,16%
c1ccc(OC[C@H]2CN(CCN3CCc4ccccc43)CCO2)nc1,HTR2C,radioligand binding,,"concentration not given, with: [3H]mesulergine",,15.5%
C=CC[C@@H]1NC(=O)[C@H](CCSC)NC(=O)CCSCc2cccc(n2)CSCCNC(=O)[C@H](CCCCCC(=O)N(O)CCCCCC)NC1=O,HDAC1,"enzyme activity, inhibitor, fluorogenic",,30 µM,,55%
C=CC(=O)N1[C@H](c2ccc3c(c2)OCO3)c2[nH]c3ccccc3c2C[C@@H]1C(=O)NC1CC1,"Solute carrier family 66 member 3 (SLC66A3, Homo sapiens, UniProt Q8N755)","cysteine IA-DTB labelling, covalent inhibitor, MS-ABPP",22Rv1,"20 µM, in situ treatment",baseline: DMSO,47%
CN(C)C/C=C/C(=O)Nc1ccc2nc(NCCCCCN(C)C)nc(NCCCCCCN(C)C)c2c1,"SUV39H1 (Homo sapiens, UniProt O43463)","enzyme activity, inhibitor, radiometric",,10 µM,,48%
Cc1c(COc2cc(OCc3cccc(C#N)c3)c(CN3CCCC[C@@H]3C(=O)O)cc2Cl)cccc1-c1cccc(OCCCCCCC(=O)NO)c1,HDAC1,"enzyme activity, inhibitor",,1 µM,,82.2%
NC(=O)C[C@H]1CCc2sc3ncnc(O[C@H]4CC[C@H](N5CCOCC5)CC4)c3c21,"PKN3 (Homo sapiens, UniProt Q6P5Z2)","enzyme activity, inhibitor",,10 µM,,17%
Cc1cccc(O[C@H]2CCC[C@@H](C(C)CNCc3ccncc3)C2)c1 (relative stereo),"DYRK4 (Homo sapiens, UniProt Q9NR20)","enzyme activity, inhibitor",,1 µM,,0%
Cc1c(COc2cc(OCc3cccc(C#N)c3)c(CN3CCCC[C@@H]3C(=O)O)cc2Cl)cccc1-c1cccc(OCc2ccc(/C=C/C(=O)NO)cc2)c1,HDAC1,"enzyme activity, inhibitor",,1 µM,,27.4%
COc1ncc2nc(C)n(Cc3ncc(S(N)(=O)=O)cc3F)c2c1-c1ccccc1,Neuronal acetylcholine receptor; alpha4/beta2,"antagonist, cell-based",,10 µM,,-3.75%
C[C@@H](O)[C@H](NC(=O)c1ccc(OCc2ccccc2)cc1)C(=O)N[C@@H](CCc1ccccc1)C(=O)NCc1ccccc1Cl,CTSL,"enzyme activity, inhibitor",,100 µM,,33%
COc1cc(OC)c(F)c(/C=C/c2cnc3ccn(S(=O)(=O)c4cn(CCF)cn4)c3n2)c1F,"ERBB4 (Homo sapiens, UniProt Q15303)",,,10 nM,,5%
CCCCCCCCCCCCCC(=S)NCCCC[C@H](NS(C)(=O)=O)C(=O)N[C@H](C)C(=O)N[C@@H](CCCNC(=N)N)C(N)=O,"SIRT6 (Homo sapiens, UniProt Q8N6T7)","enzyme activity, inhibitor",,10 µM,,29%
CNC(=O)C[C@H](Cc1ccc(C#N)cc1)NC(=O)c1cc(-c2ccc(CN[C@H](C)c3ccc(C)cc3)o2)ccc1Cl,"SSTR4 (Homo sapiens, UniProt P31391)","calcium signal, antagonist",,10 µM,,4%
O=C1c2sc(-c3ccc(N4CCC(F)C4)nc3F)nc2CCN1c1cccnc1 (stereo not shown),Neuronal acetylcholine receptor; alpha4/beta2,"ligand displacement, radioligand",,1 µM,,-4%
Cc1[nH]nc2c1N=C(c1ccccc1Cl)c1cnc(N3CCOCC3)cc1N2,Grin1,,,"10 µM, rat off-target panel",,11%
COc1cc(-c2cn(C)c(=O)c3cnccc23)cc(OC)c1CN(C)C,"CREBBP (Homo sapiens, UniProt Q92793)",,,1 µM,,-21.9%

# A few entries again:
Structure (SMILES),target,assay,test system,conditions,scale,inhibition
O=C(n1ccnn1)n1c2ccccc2c2ccccc21,Faah,"serine hydrolase activity, inhibitor, competitive gel-based ABPP",mouse T-cell proteome,"1 µM, 30 min, 37 °C",,< 50%
C[Si]1(C[C@H](CN)CC(=O)O)CCCC1,"NMBR (Homo sapiens, UniProt P28336)","cell-free assay, inhibitor",,70 µM,,9%
O=C1c2sc(-c3ccc(N4CCC(CO)CC4)nc3F)nc2CCN1c1cccnc1,HTR2C,"ligand displacement, radioligand",,1 µM,,-2%
Cc1c(COc2cc(OCc3cccc(C#N)c3)c(CNC(CO)CO)cc2Cl)cccc1-c1cccc(OCc2ccc(C(=O)NO)cc2)c1,HDAC1,"enzyme activity, inhibitor",,1 µM,,15.5%
